Results of several laboratories.
Compare with care: the assays were run in different laboratories.
B1: RAD1 (Homo sapiens, UniProt O60671); sequence looked up; chain MPLLTQQIQDEDDQYSLVASLDNVRNLSTILKAIHFREHATCFATKNGIKVTVENAKCVQANAFIQAGIFQEFKVQEESVTFRINLTVLLDCLSIFGSSPMPGTLTALRMCYQGYGYPLMLFLEEGGVVTVCKINTQEPEETLDFDFCSTNVINKIILQSEGLREAFSELDMTSEVLQITMSPDKPYFRLSTFGNAGSSHLDYPKDSDLMEAFHCNQTQVNRYKISLLKPSTKALVLSCKVSIRTDNRGFLSLQYMIRNEDGQICFVEYYCCPDEEVPESES
B2: tnsD 1-318 K30A/R40D (Escherichia coli, UniProt P13991); sequence looked up; chain MRNFPVPYSNELIYSTIARAGVYQGIVSPAQLLDEVYGNDKVVATLGLPSHLGVIARHLHQTGRYAVQQLIYEHTLFPLYAPFVGKERRDEAIRLMEYQAQGAVHLMLGVAASRVKSDNRFRYCPDCVALQLNRYGEAFWQRDWYLPALPYCPKHGALVFFDRAVDDHRHQFWALGHTELLSDYPKDSLSQLTALAAYIAPLLDAPRAQELSPSLEQWTLFYQRLAQDLGLTKSKHIRHDLVAERVRQTFSDEALEKLDLKLAENKDTCWLKSIFRKHRKAFSYLQHSIVWQALLPKLTVIEALQQASALTEHSITTR
B3: POL30 1-258 (Saccharomyces cerevisiae, UniProt P15873); chain MLEAKFEEASLFKRIIDGFKDCVQLVNFQCKEDGIIAQAVDDSRVLLVSLEIGVEAFQEYRCDHPVTLGMDLTSLSKILRCGNNTDTLTLIADNTPDSIILLFEDTKKDRIAEYSLKLMDIDADFLKIEELQYDSTLSLPSSEFSKIVRDLSQLSDSINIMITKETIKFVADGDIGSGSVIIKPFVDMEHPETSIKLEMDQPVDLTFGAKYLLDIIKGSSLSDRVGIRLSSEAPALFQFDLKSGFLQFFLAPKFNDEE
B4: CLNS1A 2-237 (Homo sapiens, UniProt P54105); sequence looked up; chain SFLKSFPPPGPAEGLLRQQPDTEAVLNGKGLGTGTLYIAESRLSWLDGSGLGFSLEYPTISLHALSRDRSDCLGEHLYVMVNAKFEEESKEPVADEEEEDSDDDVEPITEFRFVPSDKSALEAMFTAMCECQALHPDPEDEDSDDYDGEEYDVEAHEQGQGDIPTFYTYEEGLSHLTAEGQATLERLEGMLSQSVSSQYNMAGVRTEDSIRDYEDGMEVDTTPTVAGQFEDADVDH
B5: NOTCH2 221-530 (Homo sapiens, UniProt Q04721); sequence looked up; chain LYVPCAPSPCVNGGTCRQTGDFTFECNCLPGFEGSTCERNIDDCPNHRCQNGGVCVDGVNTYNCRCPPQWTGQFCTEDVDECLLQPNACQNGGTCANRNGGYGCVCVNGWSGDDCSENIDDCAFASCTPGSTCIDRVASFSCMCPEGKAGLLCHLDDACISNPCHKGALCDTNPLNGQYICTCPQGYKGADCTEDVDECAMANSNPCEHAGKCVNTDGAFHCECLKGYAGPRCEMDINECHSDPCQNDATCLDKIGGFTCLCMPGFKGVHCELEINECQSNPCVNNGQCVDKVNRFQCLCPPGFTGPVCQ
B6: pduC (Salmonella enterica, UniProt P37450); sequence looked up; chain MRSKRFEALAKRPVNQDGFVKEWIEEGFIAMESPNDPKPSIKIVNGAVTELDGKPVSEFDLIDHFIARYGINLNRAEEVMAMDSVKLANMLCDPNVKRSEIVPLTTAMTPAKIVEVVSHMNVVEMMMAMQKMRARRTPSQQAHVTNVKDNPVQIAADAAEGAWRGFDEQETTVAVARYAPFNAIALLVGSQVGRPGVLTQCSLEEATELKLGMLGHTCYAETISVYGTEPVFTDGDDTPWSKGFLASSYASRGLKMRFTSGSGSEVQMGYAEGKSMLYLEARCIYITKAAGVQGLQNGSVSCIGVPSAVPSGIRAVLAENLICSSLDLECASSNDQTFTHSDMRRTARLLMQFLPGTDFISSGYSAVPNYDNMFAGSNEDAEDFDDYNVIQRDLKVDGGLRPVREEDVIAIRNKAARALQAVFAGMGLPPITDEEVEAATYAHGSKDMPERNIVEDIKFAQEIINKNRNGLEVVKALAQGGFTDVAQDMLNIQKAKLTGDYLHTSAIIVGDGQVLSAVNDVNDYAGPATGYRLQGERWEEIKNIPGALDPNEID
B7: bcsC 21-179 (Escherichia coli, UniProt P37650); chain VEAAPTAQQQLLEQVRLGEATHREDLVQQSLYRLELIDPNNPDVVAARFRSLLRQGDIDGAQKQLDRLSQLAPSSNAYKSSRTTMLLSTPDGRQALQQARLQATTGHAEEAVASYNKLFNGAPPEGDIAVEYWSTVAKIPARRGEAINQLKRINADAPG
B8: ATG9 864-997 (Saccharomyces cerevisiae, UniProt Q12142); sequence looked up; chain SFLNNKYSWRKQFQPGQKPELFRIGKHALGPGHNISPAIYSTRNPGKNWDNNNNGDDIKNGTNNATAKNDDNNGNNDHEYVLTESFLDSGAFPNHDVIDHNKMLNSNYNGNGILNKGGVLGLVKEYYKKSDVGR
B9: CCDC32 101-179 (Mus musculus, UniProt Q8BS39); chain LRTLAQAKKECWDRFLQEKLASEFFVDGLDSDERTLEHFKRWLQPDKVAISTEEVQFLIPPESQAEKPEAGDKPAAAEQ
B10: TOMM20 cytosolic domain, 62-127 (Homo sapiens, UniProt Q15388); chain CDAEAVQKFFLEEIQLGEELLAQGEYEKGVDHLTNAIAVCGQPQQLLQVLQQTLPPPVFQMLLTKLP
B11: HNRNPA0 178-304 (Homo sapiens, UniProt Q13151); sequence looked up; chain DIYSGGGGGGSRSSRGGRGGRGRGGGRDQNGLSKGGGGGYNSYGGYGGGGGGGYNAYGGGGGGSSYGGSDYGNGFGGFGSYSQHQSSYGPMKSGGGGGGGGSSWGGRSNSGPYRGGYGGGGGYGGSS
B12: AEBP2 407-498 (Homo sapiens, UniProt Q6ZN18-2); sequence looked up; chain RHRAICFNLSAHIESLGKGHSVVFHSTVIAKRKEDSGKIKLLLHWMPEDILPDVWVNESERHQLKTKVVHLSKLPKDTALLLDPNIYRTMPQ
B13: MARCHF2 (Homo sapiens, UniProt Q9P0N8); sequence looked up; chain MTTGDCCHLPGSLCDCSGSPAFSKVVEATGLGPPQYVAQVTSRDGRLLSTVIRALDTPSDGPFCRICHEGANGECLLSPCGCTGTLGAVHKSCLEKWLSSSNTSYCELCHTEFAVEKRPRPLTEWLKDPGPRTEKRTLCCDMVCFLFITPLAAISGWLCLRGAQDHLRLHSQLEAVGLIALTIALFTIYVLWTLVSFRYHCQLYSEWRKTNQKVRLKIREADSPEGPQHSPLAAGLLKKVAEETPV
B14: EIF3J/GST 103-258 (Homo sapiens); Alexa Fluor 546 label; sequence looked up; chain EEPKVLTPEEQLADKLRLKKLQEESDLELAKETFGVNNAVYGIDAMNPSSRDDFTEFGKLLKDKITQYEKSLYYASFLEVLVRDVCISLEIDDLKKITNSLTVLCSEKQKQEKQSKAKKKKKGVVPGGGLKATMKDDLADYGGYDGGYVQDYEDFM
B15: BMI1 (Homo sapiens, UniProt P35226); chain MHRTTRIKITELNPHLMCVLCGGYFIDATTIIECLHSFCKTCIVRYLETSKYCPICDVQVHKTRPLLNIRSDKTLQDIVYKLVPGLFKNEMKRRRDFYAAHPSADAANGSNEDRGEVADEDKRIITDDEIISLSIEFFDQNRLDRKVNKDKEKSKEEVNDKRYLRCPAAMTVMHLRKFLRSKMDIPNTFQIDVMYEEEPLKDYYTLMDIAYIYTWRRNGPLPLKYRVRPTCKRMKISHQRDGLTNAGELESDSGSDKANSPAGGIPSTSSCLPSPSTPVQSPHPQFPHISSTMNGTSNSPSGNHQSSFANRPRKSSVNGSSATSSG
B16: USP7 207-560 (Homo sapiens, UniProt Q93009); sequence looked up; chain SKKHTGYVGLKNQGATCYMNSLLQTLFFTNQLRKAVYMMPTEGDDSSKSVPLALQRVFYELQHSDKPVGTKKLTKSFGWETLDSFMQHDVQELCRVLLDNVENKMKGTCVEGTIPKLFRGKMVSYIQCKEVDYRSDRREDYYDIQLSIKGKKNIFESFVDYVAVEQLDGDNKYDAGEHGLQEAEKGVKFLTLPPVLHLQLMRFMYDPQTDQNIKINDRFEFPEQLPLDEFLQKTDPKDPANYILHAVLVHSGDNHGGHYVVYLNPKGDGKWCKFDDDVVSRCTKEEAIEHNYGGHDDDLSVRHCTNAYMLVYIRESKLSEVLQAVTDHDIPQQLVERLQEEKRIEAQKRKERQE
B17: mepS (Escherichia coli, UniProt P0AFV4); sequence looked up; chain CSANNTAKNMHPETRAVGSETSSLQASQDEFENLVRNVDVKSRIMDQYADWKGVRYRLGGSTKKGIDCSGFVQRTFREQFGLELPRSTYEQQEMGKSVSRSNLRTGDLVLFRAGSTGRHVGIYIGNNQFVHASTSSGVIISSMNEPYWKKRYNEARRVLSRS
B18: GP1BA 17-306 (Homo sapiens, UniProt P07359); sequence looked up; chain HPICEVSKVASHLEVNCDKRNLTALPPDLPKDTTILHLSENLLYTFSLATLMPYTRLTQLNLDRCELTKLQVDGTLPVLGTLDLSHNQLQSLPLLGQTLPALTVLDVSFNRLTSLPLGALRGLGELQELYLKGNELKTLPPGLLTPTPKLEKLSLANNNLTELPAGLLNGLENLDTLLLQENSLYTIPKGFFGSHLLPFAFLHGNPWLCNCEILYFRRWLQDNAENVYVWKQGVDVKAMTSNVASVQCDNSDKFPVYKYPGKGCPTLGDEGDTDLYDYYPEEDTEGDKVR
Sequence of UniProt P84091 (whole entry, looked up): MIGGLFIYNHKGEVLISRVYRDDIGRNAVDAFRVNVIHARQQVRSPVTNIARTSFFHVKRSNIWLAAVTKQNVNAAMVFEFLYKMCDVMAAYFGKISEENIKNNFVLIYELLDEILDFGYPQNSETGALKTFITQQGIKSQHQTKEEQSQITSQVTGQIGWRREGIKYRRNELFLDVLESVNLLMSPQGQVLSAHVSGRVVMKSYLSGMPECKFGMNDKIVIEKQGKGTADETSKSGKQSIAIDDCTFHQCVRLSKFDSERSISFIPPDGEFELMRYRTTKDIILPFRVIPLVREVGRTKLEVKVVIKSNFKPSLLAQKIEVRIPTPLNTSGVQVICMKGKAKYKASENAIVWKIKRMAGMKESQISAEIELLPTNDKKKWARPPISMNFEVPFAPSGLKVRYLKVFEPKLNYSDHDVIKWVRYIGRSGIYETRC
Sequence of UniProt P18858 (whole entry, looked up): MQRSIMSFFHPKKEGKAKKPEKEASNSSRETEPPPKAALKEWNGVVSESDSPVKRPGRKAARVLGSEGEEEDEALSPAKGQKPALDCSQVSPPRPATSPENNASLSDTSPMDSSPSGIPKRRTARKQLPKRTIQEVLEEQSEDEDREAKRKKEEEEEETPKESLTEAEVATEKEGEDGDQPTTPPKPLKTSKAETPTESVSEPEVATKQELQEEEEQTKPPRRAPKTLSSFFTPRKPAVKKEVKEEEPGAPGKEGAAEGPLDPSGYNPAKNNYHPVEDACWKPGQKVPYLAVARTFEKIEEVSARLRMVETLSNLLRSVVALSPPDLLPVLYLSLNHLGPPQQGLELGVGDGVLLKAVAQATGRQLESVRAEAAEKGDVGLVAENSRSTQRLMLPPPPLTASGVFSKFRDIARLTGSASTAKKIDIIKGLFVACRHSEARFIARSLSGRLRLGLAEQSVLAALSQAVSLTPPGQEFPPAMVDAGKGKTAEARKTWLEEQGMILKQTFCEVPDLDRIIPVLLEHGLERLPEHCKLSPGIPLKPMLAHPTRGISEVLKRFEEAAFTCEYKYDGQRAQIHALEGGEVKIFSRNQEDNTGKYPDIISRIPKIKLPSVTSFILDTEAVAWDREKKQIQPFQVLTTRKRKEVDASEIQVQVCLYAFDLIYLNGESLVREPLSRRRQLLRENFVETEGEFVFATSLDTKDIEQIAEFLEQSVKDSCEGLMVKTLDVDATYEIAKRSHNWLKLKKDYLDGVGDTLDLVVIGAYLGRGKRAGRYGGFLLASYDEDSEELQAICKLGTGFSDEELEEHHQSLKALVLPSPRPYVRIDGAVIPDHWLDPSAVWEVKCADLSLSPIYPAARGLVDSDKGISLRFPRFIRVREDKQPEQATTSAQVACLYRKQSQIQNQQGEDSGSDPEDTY
Sequence of UniProt P38629 (whole entry, looked up): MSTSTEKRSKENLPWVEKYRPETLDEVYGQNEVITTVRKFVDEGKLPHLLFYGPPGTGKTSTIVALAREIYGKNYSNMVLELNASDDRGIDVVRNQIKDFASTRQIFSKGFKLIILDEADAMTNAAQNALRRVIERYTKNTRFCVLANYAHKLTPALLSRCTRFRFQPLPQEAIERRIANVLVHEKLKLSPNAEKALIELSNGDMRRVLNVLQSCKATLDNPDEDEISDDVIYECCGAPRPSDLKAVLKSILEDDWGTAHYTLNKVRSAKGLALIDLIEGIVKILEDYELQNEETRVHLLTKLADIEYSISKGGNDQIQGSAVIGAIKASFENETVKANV
Sequence of UniProt P05846 (whole entry, looked up): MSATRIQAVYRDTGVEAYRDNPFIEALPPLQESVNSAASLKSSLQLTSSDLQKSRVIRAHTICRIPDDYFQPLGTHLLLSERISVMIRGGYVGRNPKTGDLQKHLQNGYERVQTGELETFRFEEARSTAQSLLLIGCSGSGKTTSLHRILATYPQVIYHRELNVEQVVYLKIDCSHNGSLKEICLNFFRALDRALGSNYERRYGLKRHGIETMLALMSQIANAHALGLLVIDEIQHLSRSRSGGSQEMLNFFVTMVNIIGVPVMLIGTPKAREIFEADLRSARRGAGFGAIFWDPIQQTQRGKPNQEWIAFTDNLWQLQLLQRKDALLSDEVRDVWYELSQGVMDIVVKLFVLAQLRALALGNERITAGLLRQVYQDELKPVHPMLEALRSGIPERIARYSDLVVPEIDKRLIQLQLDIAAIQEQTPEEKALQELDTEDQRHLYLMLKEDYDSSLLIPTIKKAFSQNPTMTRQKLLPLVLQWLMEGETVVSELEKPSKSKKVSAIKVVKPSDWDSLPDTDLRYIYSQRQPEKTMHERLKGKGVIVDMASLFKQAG
Sequence of UniProt Q92804 (whole entry, looked up): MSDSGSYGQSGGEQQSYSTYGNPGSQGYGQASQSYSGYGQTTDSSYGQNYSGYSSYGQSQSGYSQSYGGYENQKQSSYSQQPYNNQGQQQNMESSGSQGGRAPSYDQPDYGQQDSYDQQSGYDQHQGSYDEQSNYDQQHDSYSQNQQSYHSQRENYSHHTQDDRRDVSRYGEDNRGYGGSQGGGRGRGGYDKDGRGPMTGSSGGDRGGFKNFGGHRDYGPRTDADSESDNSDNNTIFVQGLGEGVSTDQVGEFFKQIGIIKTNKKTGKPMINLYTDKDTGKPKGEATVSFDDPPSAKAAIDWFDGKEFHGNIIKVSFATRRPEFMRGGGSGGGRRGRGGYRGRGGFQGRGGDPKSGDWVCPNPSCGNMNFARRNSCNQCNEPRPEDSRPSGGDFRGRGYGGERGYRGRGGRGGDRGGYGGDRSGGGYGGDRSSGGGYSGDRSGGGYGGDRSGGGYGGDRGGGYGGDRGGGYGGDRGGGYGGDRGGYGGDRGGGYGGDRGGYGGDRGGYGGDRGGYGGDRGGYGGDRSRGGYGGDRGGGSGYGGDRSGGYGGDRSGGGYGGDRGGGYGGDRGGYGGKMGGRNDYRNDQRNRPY
Sequence of UniProt Q9Z2G0 (whole entry, looked up): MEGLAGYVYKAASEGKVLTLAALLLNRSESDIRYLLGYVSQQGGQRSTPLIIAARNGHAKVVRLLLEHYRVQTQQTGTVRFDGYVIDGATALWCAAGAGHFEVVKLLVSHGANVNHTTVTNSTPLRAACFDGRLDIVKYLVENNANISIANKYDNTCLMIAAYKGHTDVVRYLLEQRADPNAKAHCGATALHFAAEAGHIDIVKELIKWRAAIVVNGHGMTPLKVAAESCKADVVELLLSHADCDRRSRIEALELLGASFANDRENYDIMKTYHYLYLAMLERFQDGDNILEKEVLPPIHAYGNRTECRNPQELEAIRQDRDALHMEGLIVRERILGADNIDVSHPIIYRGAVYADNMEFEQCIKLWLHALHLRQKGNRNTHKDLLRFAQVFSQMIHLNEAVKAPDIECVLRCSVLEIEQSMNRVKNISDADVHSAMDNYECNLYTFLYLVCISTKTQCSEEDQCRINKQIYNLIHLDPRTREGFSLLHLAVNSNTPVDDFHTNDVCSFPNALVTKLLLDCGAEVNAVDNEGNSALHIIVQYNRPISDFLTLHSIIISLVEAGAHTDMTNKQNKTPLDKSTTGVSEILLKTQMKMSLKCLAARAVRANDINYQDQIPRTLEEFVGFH
Sequence of UniProt Q99613 (whole entry, looked up): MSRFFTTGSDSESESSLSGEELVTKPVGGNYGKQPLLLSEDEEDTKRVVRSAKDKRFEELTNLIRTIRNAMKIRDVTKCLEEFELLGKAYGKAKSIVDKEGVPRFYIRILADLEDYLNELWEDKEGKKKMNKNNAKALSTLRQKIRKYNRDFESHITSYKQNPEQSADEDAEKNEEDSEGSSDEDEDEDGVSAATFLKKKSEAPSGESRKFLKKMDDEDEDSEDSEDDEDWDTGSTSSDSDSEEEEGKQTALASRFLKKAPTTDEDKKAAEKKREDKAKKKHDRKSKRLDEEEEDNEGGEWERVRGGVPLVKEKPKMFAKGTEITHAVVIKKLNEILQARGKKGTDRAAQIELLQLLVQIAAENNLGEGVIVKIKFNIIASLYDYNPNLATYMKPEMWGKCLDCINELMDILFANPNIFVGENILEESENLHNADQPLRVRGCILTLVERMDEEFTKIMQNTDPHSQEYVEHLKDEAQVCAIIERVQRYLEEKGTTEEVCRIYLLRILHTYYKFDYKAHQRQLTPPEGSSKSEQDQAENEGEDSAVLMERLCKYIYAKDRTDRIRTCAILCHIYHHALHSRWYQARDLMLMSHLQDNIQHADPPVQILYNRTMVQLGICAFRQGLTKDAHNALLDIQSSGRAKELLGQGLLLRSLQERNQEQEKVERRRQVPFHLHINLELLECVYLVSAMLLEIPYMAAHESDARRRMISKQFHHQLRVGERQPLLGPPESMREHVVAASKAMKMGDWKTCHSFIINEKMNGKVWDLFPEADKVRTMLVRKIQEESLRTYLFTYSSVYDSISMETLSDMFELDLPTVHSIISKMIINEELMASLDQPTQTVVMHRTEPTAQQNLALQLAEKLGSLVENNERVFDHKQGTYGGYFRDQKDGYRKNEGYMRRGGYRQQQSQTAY
Sequence of UniProt Q99496 (whole entry, looked up): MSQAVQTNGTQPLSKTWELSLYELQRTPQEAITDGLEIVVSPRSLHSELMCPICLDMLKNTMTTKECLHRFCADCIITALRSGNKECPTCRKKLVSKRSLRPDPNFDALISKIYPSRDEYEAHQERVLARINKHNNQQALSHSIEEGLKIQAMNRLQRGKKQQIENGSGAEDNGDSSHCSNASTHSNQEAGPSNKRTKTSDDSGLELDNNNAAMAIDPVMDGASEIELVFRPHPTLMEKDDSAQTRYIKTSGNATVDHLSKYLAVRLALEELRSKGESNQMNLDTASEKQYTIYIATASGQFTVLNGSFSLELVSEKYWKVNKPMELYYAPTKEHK
Sequence of UniProt Q5T0T0 (whole entry, looked up): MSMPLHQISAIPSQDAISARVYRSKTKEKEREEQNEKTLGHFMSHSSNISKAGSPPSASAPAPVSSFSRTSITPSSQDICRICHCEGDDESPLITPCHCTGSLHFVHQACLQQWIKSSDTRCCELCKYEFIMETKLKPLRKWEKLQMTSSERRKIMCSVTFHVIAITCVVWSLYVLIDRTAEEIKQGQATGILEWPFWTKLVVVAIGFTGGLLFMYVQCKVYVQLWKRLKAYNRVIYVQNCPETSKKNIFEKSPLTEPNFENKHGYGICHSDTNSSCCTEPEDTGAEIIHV

Molecule	tested on	test	test system	conditions	quantity	value
B1 (RAD1)	LIG1 (Homo sapiens, UniProt P18858)	pull-down	–	1 hr, 4 °C	binding	binds
B2 (tnsD 1-318 K30A/R40D)	tnsC 1-503 (Escherichia coli, UniProt P05846)	dynamic light scattering	–	with: ATP	binding	binds
B3 (POL30 1-258)	RFC3 (Saccharomyces cerevisiae, UniProt P38629)	cryo-EM	–	–	binding	binds
B4 (CLNS1A 2-237)	PRMT5/WDR77 fragment (Homo sapiens)	fluorescence polarization	–	–	binding	binds
B5 (NOTCH2 221-530)	DLL4 27-400 (Homo sapiens, UniProt Q9NR61)	SPR	–	–	binding	binds
RKAKTKEGKGPNARRK (CHD4 258-273 (Homo sapiens, UniProt Q14839); sequence looked up)	ATRX 1-321 Y203A (Homo sapiens, UniProt P46100)	ITC	peptide	25 °C	binding	binds
B6 (pduC)	PduG (Salmonella enterica Typhimurium LT2, UniProt O31043)	cross-linking	–	–	binding	binds
B7 (bcsC 21-179)	bcsB 56-779 (Escherichia coli, UniProt P37652)	cryo-EM	–	–	binding	binds
B8 (ATG9 864-997)	ATG23 A34E (UniProt Q06671)	pull-down	–	2 µM	binding	binds
B9 (CCDC32 101-179)	Ap2m1 122-435 (Mus musculus, UniProt P84091)	pull-down	–	–	binding	binds
FGA (Homo sapiens, UniProt P02671)	EML6 (Homo sapiens, UniProt Q6ZMW3)	cross-linking MS	–	with: DSSO	cross-linked residues	K448 to K808
B10	Fem1b (Mus musculus, UniProt Q9Z2G0)	fluorescence polarisation	–	–	binding	binds
colistin	Pseudomonas aeruginosa	broth microdilution	clinical isolate RKI-No_696/15	–	MIC	2 µg/mL
B11 (HNRNPA0 178-304)	TAF15 396-592 (Homo sapiens, UniProt Q92804)	hydrogel trapping	–	–	binding	binds
B12 (AEBP2 407-498)	SUZ12/RBBP4 SUZ12 76-545 (Homo sapiens)	SEC	–	–	binding	binds
B13 (MARCHF2)	MARCH8 (Homo sapiens, UniProt Q5T0T0)	pull-down	–	–	binding	binds
B14 (EIF3J/GST 103-258)	EIF3C 302-913 (Homo sapiens, UniProt Q99613)	EMSA	–	–	binding	binds
SVP (Arabidopsis thaliana, UniProt Q9FVC1)	protein (Arabidopsis thaliana, UniProt O65555)	pull-down	–	–	binding	binds
B15 (BMI1)	RNF2 (Homo sapiens, UniProt Q99496)	SEC	–	–	binding	binds
B16 (USP7 207-560)	ubiquitin, N-terminal TAMRA label (UniProt P0CG48)	fluorescence polarisation	–	–	binding	binds
11-deoxycorticosterone	human CYP11B2	stopped-flow kinetic modelling	–	3-state conformational selection model, with: no adrenodoxin	Kd	3.57 µM
B17 (mepS)	nlpI (Escherichia coli, UniProt P0AFB1)	pull-down	–	–	binding	binds
B18 (GP1BA 17-306)	VWF mature, recombinant (Homo sapiens, UniProt P04275)	ELISA	–	–	binding	binds
ALB (Homo sapiens, UniProt P02768)	CPXM2 (Homo sapiens, UniProt Q8N436)	cross-linking MS	–	with: DSSO	cross-linked residues	K219 to K732

Some of these lines once more:
Molecule	tested on	test	test system	conditions	quantity	value
RKAKTKEGKGPNARRK (CHD4 258-273 (Homo sapiens, UniProt Q14839); sequence looked up)	ATRX 1-321 Y203A (Homo sapiens, UniProt P46100)	ITC	peptide	25 °C	binding	binds
